Results pooled from the literature.
Numbered parts are unrelated; each lists some results of a single study. Positions count from the first letter of the parent shown.

Sample 1 — technique: EMSA with sequencing; molecule type: double-stranded DNA, one strand shown; medium: in vitro; tested at: 10 and 20 nM; reference: negative control set to 0; direction: higher = stronger binding
Target: Hepatocyte nuclear factor 3-alpha (Foxa1, Mus musculus, UniProt P35582, residues 1-468, full length assumed)
Notes: whole designed probe, mean of two concentrations, ends assumed
Shared flanks, not repeated: GTGAGCGGTGCCCATTGATGGGGAAC … TTTCACTGGGATCGTGGGGAC
Target sequence (chain): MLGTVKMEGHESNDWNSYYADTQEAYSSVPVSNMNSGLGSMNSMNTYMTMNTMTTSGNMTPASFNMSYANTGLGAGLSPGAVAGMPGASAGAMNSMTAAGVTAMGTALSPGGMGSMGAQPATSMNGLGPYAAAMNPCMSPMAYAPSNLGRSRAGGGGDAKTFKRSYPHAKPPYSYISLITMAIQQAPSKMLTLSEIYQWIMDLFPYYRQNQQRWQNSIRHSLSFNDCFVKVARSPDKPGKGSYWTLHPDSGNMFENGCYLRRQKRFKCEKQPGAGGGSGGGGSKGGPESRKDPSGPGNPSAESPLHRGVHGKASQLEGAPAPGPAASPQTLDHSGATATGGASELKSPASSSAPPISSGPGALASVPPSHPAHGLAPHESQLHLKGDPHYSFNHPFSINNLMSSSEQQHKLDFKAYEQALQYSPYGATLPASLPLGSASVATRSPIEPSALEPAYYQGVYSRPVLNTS
Oligonucleotide | normalised bound fraction [ratio]
CAGCTTGGGGCAGACAGTTGTTAGGAGATAAAACTCTTAGCTGCTGGAGTTCTGGGCTTTATTTCTTCTTCAACAAAGCTCTGACTCAGTTAGGTAATCTCAGGCACTAGCAAGCCTGATCATTTCCAGAGAGTTCCCCAGGGACAGACACAAAGGAATACAGAAGATAATAGATTAATTAAACATGCTGCCC | 0.0167
CTTGATAAGATTGAGCTTCCAGCAGAATGTAAATGCATCTGCTAACAGCAACCAGGCTTTGTCCCAAAACAGTAGTGAATCAGAATCTGCACAGTAAATATTGCAGTTAATTTCCTCTCCTGTACTTATGACTCACAGGCCTTTCTTTACGTTCACAGTTTCATAGAAATTGGCAAATACTTCTTGACACTGA | 0.0884
AATTAAAAAAGAATAAATGTCAGTAGAACCTCATTAAGACAGGTCTGACATTTTAAATAAAATAGGAGAAAAATCCATGAATATTAAATCCCTGTTTACTTATCTTTCTGTAATATTTGTGATATGAATTTCTTCCAGGCATCCCATCTTTCACACATAATTTAACACTTGCATTACCTTACTTCCTCTAACC | 0.366
AAGGCATCCCATAGATGATGGTTACAAATCAGCACAGGATTAAAATAGTGCCCCCAACACATTAAAAGCTGACTCTGCTGGGTGTGGCTTAAGTAAACATCTCGTCTCAACTGGACAGCTACCCAGTAACACAGCCACAGAAACCGAAAATATGTGAGTACATAAGTAAAGTGCTTCTTTTGGAGGGGGTGGG | 0.459
AGTCACTCATTCATTACATAAAGTCTTTATCTTCGTGCATATCCTGGAACAATACTCTTAAATAAATACTCTCGGAGGCATTTTACTCCATGGCTATTTACTTTGCATTTCCATGATCTCAATGGAACACAGAAAGGGAGGAGGTAGAAGGCTTGGCAAACAATCATTTGCCACCATCTACGCACAAGGGGAC | 0.416
TCCACAGCTACCCTTGGTTCCTTCAATCCCTCTTCTCCTAAAACAAACAAAAGCATGTTCCTTTGTCATTAAAAAAAAAAAAAAAAAGCAAAGTAATCTTGCATCACACAGGCCAGCAGCCAGAAGTTTCCAATGCTCAGTGTCTGCTGCATTCTACGCCTCTATCACACAAAACTCACCACCCTCTAGTTCT | 0.439
AAGTTACTAAGTTATTGTAAAACAAAAAAGAAAACAAAACAAAACAGGATTTTAGCCAAAGCTGCCTATATTCACAGCAGAGATCTGAACCACTTGTTTACACTGAGGTGATGTGGAGTGTCTCCCAGTACCTCTGAAACTAGAAAAGTCTATATGTTCTCCCACATTAAGCAGGCCAAAAAGTATTTTGTTC | 0.287
AATTACAAGTTCTATGACCTTATTGTAAGGTGTCTCAAACTTTTTTGAATTGGGTGTGTACATTTAGAGTAACCAAACTGAGTCAGTGCAAAGTCAACAGAGCTGGGCAGATAGCCGAGCCAGGAGAAATCTCAACTGGATGGTGCCAGAACTGGTAGGGGAAGCCTCTAGTACTGCTACCAAATATATTGTG | 0.262

Sample 2 — target: UBE2N UBC core domain (UniProt P61088); technique: yeast two-hybrid; medium: yeast; notes: mostly zero background; reference: not given; direction: higher = stronger interaction
B1: RNF170 RING domain (UniProt Q96K19); chain TRQQFYTDMYCPICLHQASFPVETNCGHLFCGACIIAYWRYGSWLGAISCPICRQTVTLLLTVF
B2: MID1 RING domain (UniProt O15344); chain METLESELTCPICLELFEDPLLLPCAHSLCFNCAHRILVSHCATNESVESITAFQCPTCRHVITLSQRGL
B3: TRIM8 RING domain (UniProt Q9BZR9); chain WKNCFEEELICPICLHVFVEPVQLPCKHNFCRGCIGEAWAKDSGLVRCPECNQAYNQKPGLE
Construct (chain): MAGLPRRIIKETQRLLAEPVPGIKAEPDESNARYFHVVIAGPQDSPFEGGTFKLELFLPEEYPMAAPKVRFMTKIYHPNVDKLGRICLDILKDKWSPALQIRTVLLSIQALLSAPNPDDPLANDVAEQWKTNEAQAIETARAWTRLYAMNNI
Molecule | lacZ reporter activity
B1 (RNF170 RING domain) | 0
RLTMMWEEVTCPICLDPFVEPVSIECGHSFCQECISQVGKGGGSVCPVCRQRFLLKNLRP (TRIM21 RING domain (UniProt P19474)) | 0
DDENSDNSNECVVCLSDLRDTLILPCRHLCLCTSCADTLRYQANNCPICRLPFRALLQIR (MGRN1 RING domain (UniProt O60291)) | 0
VTLSLTLPITCHICLGKVRQPVICINNHVFCSICIDLWLKNNSQCPACRVPITPENPCK (OBI1 RING domain (UniProt Q5W0B1)) | 0
B2 (MID1 RING domain) | 0
DAIPSLSECQCGICMEILVEPVTLPCNHTLCKPCFQSTVEKASLCCPFCRRRVSSWTRYH (RNF168 RING domain (UniProt Q8IYW5)) | 0
B3 (TRIM8 RING domain) | 0
EDEVSDNSAECVVCLSDVRDTLILPCRHLCLCNTCADTLRYQANNCPICRLPFRALLQIR (RNF157 RING domain (UniProt Q96PX1)) | 0
FPEHFVKSISCQICEHILADPVETNCKHVFCRVCILRCLKVMGSYCPSCRYPCFPTDLES (RAG1 RING domain (UniProt P15918)) | 0
QLQDIKEQTMCPVCLDRLKNMIFLCGHGTCQLCGDRMSECPICRKAIERRILLY (MIB1 RING domain (UniProt Q86YT6)) | 2160

Sample 3 — technique: DHFR PCA, deep sequencing; medium: yeast; together with: (+)-ABA 0.39 µM; reference: wild-type fitted maximum; direction: higher = stronger binding
Target: ABI1, truncated, D143A, DHFR fusion (Arabidopsis thaliana)
Notes: methotrexate growth selection, single substitutions
Starting sequence: PYL1, truncated, DHFR fusion (Arabidopsis thaliana); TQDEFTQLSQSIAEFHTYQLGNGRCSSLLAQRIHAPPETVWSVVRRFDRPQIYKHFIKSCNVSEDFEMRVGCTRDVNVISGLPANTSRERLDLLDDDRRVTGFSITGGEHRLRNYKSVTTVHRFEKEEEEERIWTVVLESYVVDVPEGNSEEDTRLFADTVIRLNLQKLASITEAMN
Substitution | relative binding score
E125H | 54.7%
M68K | 6.77%
R90I | 2.54%
F5G | 5.92%
N77Q | 74.3%
H110V | 1.55%
D92E | 10.9%
M68P | 3.6%
G23T | 10.1%
I12K | -11%
E151P | 49.9%
S171F | -0.937%
S117R | 4.45%

Sample 4 — target: CCNE2, cyclin fold, Cln2 fusion (human); technique: yeast growth competition, sequencing; medium: yeast; notes: strong parent motif; reference: not given; direction: higher = stronger binding
Starting sequence: CDC25A docking peptide (human); PPHRRRLLFACSP
Substitution | normalised enrichment score
PQHRRRLLFACSP [P2Q] | 1.71
PPHRRRLLFHCSP [A10H] | 2
PPHRRRLLFAPSP [C11P] | 3.25
PPHRNRLLFACSP [R5N] | -0.0617
PPHRRRLLFYCSP [A10Y] | 1.12
PPHRRRLRFACSP [L8R] | 1.75
PPHRRRLLFACAP [S12A] | 1.82
PPYRRRLLFACSP [H3Y] | 2.66
PPHRRRLQFACSP [L8Q] | 1.67
FPHRRRLLFACSP [P1F] | 0.985
PPHRRSLLFACSP [R6S] | 0.976
PPHRRRLYFACSP [L8Y] | 2.45
PPHRSRLLFACSP [R5S] | 0.766
PPGRRRLLFACSP [H3G] | 0.985
PPHRKRLLFACSP [R5K] | 1.23
PPHTRRLLFACSP [R4T] | 1.27
PPSRRRLLFACSP [H3S] | 1.49
PPHRRRLLFACKP [S12K] | 0.919
PPHRARLLFACSP [R5A] | 1.05
PPHRRRLLFACNP [S12N] | 2.65
PPHRQRLLFACSP [R5Q] | 1.03
PPHRRRLLFALSP [C11L] | 1.77
PPHRRRLLFASSP [C11S] | 2.41

Some of these lines once more (sample 4):
Substitution | normalised enrichment score
PPHRKRLLFACSP [R5K] | 1.23
PPHTRRLLFACSP [R4T] | 1.27
PPSRRRLLFACSP [H3S] | 1.49
PPHRRRLLFACKP [S12K] | 0.919
